Measured values gathered from unrelated publications.
Numbered parts are unrelated; each lists some results of a single study. Changes are numbered by the printed parent chain.

Study 1 — technique: RNA Bind-n-Seq; molecule type: RNA; medium: in vitro; concentration: 100 nM; baseline: input RNA pool; direction: higher = stronger binding
Target: RING finger protein unkempt homolog, zinc fingers 1-6, SBP tag (UNK, Homo sapiens, UniProt Q9C0B0, residues 30-357)
UniProt Q9C0B0, sequence (30-357, looked up): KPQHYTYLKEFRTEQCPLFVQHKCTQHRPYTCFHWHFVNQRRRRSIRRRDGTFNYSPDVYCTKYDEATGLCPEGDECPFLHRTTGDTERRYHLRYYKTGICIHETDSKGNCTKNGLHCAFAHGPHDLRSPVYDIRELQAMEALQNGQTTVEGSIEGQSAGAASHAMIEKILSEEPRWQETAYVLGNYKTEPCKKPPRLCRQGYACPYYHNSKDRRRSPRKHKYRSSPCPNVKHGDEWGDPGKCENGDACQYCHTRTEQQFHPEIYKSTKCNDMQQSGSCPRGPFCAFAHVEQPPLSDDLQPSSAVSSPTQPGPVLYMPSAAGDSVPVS
Notes: RNA with constant flanks, vertebrate orthologous sites, ends assumed
Strand	bound/input enrichment
GGGAGUUCUACAGUCCGACGAUCAAAUUAUAGCAGGAGAGCCAAGCAGUAGCAUUGGGGUUUUUUUGUAAAUGUAAAAGUGAUUAGAUUCAGACUUUGUUUCCUUAUUCAGUUUUAAAAAUAAAAAAAUACCUCAGUGCUGUUCAACAGAGGAUUGAGCAUCA	0.302 ratio
GGGAGUUCUACAGUCCGACGAUCGCAUGUCCUGUUACUGUGGUAUUUUAAAUAUCCACAGUACUCACUUUUUCCAAACGAUCCUAGUAAUUGCCUAGAAAUAUCUUUCUCUUACCUGUUAUUUAUCAAUUUUUCCCAGUAUUUCAACAGAGGAUUGAGCAUCA	2.03 ratio
GGGAGUUCUACAGUCCGACGAUCGACCCCCACUCCCUGUGAGAGGGAAUGGGGGAAGCCUGAUGACCCUCAGCUGUUCCAAUCUAGUAUUUUUUUUCUUUUUUAAAAUUACUGUAUUUAUUAUGACGAUGGUGACUCCCCAGUCAACAGAGGAUUGAGCAUCA	1.58 ratio
GGGAGUUCUACAGUCCGACGAUCCAUUUCGUUGCACAUGAUGGUGUCUAUUGAGGAGCCUUGAAGGAAGGAAGAGGGGUGCUGUAGCAGUGGUCCCUGGGUACCUGGCCUCCCGUGUCCCACACCCCUCCCCGUCCCUCUCUGCAACAGAGGAUUGAGCAUCA	0.424 ratio

Study 2 — technique: DHFR PCA, deep sequencing; medium: yeast; with: (+)-ABA 0.11 µM; baseline: wild-type fitted maximum; direction: higher = stronger binding
Target: ABI1, truncated, D143A, DHFR fusion (Arabidopsis thaliana)
Notes: methotrexate growth selection, single substitutions
Starting sequence: PYL1, truncated, DHFR fusion (Arabidopsis thaliana); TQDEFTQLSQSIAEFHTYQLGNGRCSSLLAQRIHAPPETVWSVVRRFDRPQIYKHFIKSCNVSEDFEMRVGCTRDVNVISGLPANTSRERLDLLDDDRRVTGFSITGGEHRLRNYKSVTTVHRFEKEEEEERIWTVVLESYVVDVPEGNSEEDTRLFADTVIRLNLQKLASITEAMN
Substitution	relative binding score
N114R	-8.05%
T160D	-7.32%
S63F	3.6%

Study 3 — technique: protein-binding microarray; molecule type: double-stranded DNA, one strand shown; medium: in vitro; concentration: not given; direction: higher = stronger binding
Target: Transcription factor Sp1 (SP1, Homo sapiens, UniProt P08047, residues 1-785, full length assumed)
UniProt P08047, sequence (whole entry, looked up): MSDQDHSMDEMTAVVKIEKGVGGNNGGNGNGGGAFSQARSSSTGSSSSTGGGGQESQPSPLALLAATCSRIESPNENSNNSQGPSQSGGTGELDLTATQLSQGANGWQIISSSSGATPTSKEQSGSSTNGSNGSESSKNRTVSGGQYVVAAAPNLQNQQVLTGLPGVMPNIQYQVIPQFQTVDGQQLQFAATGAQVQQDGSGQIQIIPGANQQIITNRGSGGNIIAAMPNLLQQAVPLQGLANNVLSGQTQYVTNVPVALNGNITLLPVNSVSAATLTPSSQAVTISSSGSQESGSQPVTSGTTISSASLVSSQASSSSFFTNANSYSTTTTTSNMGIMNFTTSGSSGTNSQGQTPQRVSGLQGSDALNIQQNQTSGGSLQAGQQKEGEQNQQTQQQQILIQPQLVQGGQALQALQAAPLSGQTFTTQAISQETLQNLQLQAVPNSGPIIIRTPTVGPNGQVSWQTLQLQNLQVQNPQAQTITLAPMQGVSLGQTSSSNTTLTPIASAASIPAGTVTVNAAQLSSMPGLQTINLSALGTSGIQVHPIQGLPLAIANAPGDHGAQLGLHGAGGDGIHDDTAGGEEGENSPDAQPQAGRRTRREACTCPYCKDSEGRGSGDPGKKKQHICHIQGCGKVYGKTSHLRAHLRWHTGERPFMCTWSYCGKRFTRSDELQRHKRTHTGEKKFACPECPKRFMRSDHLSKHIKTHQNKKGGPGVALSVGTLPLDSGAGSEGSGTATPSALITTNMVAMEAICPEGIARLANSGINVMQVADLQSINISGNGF
Notes: k-mer, scored over probes, only values ≥0.25
Strand	E-score
ACCCCTCC	0.471
TGTTAACA	0.279
ACTATATA	0.281
CCCTCCTA	0.344

Further values, each from its own experiment
Molecule	target	assay	system	setting	how to read	measurement	value
PhoQ, residues 284 288 289 292 302 303 SSCCRF	PhoP, residues 12 14 15 18 19 NNFVT (Escherichia coli, UniProt P23836)	Sort-seq, measured: YFP reporter	E. coli	PhoQ-PhoP variant library, with: 10 µM Mg2+	baseline: high Mg2+ state, higher = stronger signaling	fold induction	15

For quick reference, copied from above (study 3):
Strand	E-score
ACCCCTCC	0.471
TGTTAACA	0.279
